Assay results from different studies.
Numbered parts are unrelated; each lists some results of a single study. Substitutions count along the parent as printed.

Block 1
Target: CEBPB, bZIP domain (human)
Technique: DHFR protein complementation
Sample: yeast
Setting: single substitutions, most at no-binding floor
Baseline: wild-type JUN-FOS pair
Reading: higher = stronger binding
Quantity: binding fitness
Starting sequence: JUN, bZIP domain (human); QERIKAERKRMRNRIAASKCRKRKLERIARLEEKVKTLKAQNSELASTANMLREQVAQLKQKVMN; partner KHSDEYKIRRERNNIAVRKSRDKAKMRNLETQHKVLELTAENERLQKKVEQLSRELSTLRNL
L45N: -1.43 natural log
M51L: -1.27 natural log
Q55K: -1.12 natural log
L45Y: -1.48 natural log
Q55Y: -1.11 natural log
V35E: -1.39 natural log
S47W: -1.39 natural log
I28W: -1.1 natural log
L31A: -1.32 natural log
L45V: -1.5 natural log
I28F: -1.34 natural log
R30V: -1.11 natural log
Q55S: -1.38 natural log
I28A: -1.09 natural log
A46F: -1.39 natural log
T48I: -1.39 natural log
Q41C: -1.48 natural log
A40L: -1.41 natural log
L31W: -1.38 natural log
A49V: -1.23 natural log
Q55T: -1.39 natural log
E32A: -1.1 natural log

Block 2
Target: Sal-like protein 4, full length isoform B (SALL4, Homo sapiens, UniProt Q9UJQ4-2, residues 1-616)
Technique: universal PBM
Molecule type: double-stranded DNA, one strand shown
Sample: in vitro
Tested at: not given
Setting: 8-mer, flanks averaged, mean of replicates
Reading: higher = stronger binding
Quantity: E-score
ATCCAATA: 0.27
CCACGGAC: -0.274
ACGATCTC: -0.175
GGAATCTA: 0.0858
CGGGCCTA: -0.358
GTATCGGA: 0.0161
CGATGTAA: 0.105
ATGTGGAA: 0.16
ATCCCGCA: -0.0524
CTAAGTTC: -0.233
GCGGCACC: -0.295
CTCCACTC: -0.1
AGGCGCTC: -0.38
AAACTGCA: -0.0469
AACAAGCG: 0.0747
GGCACCTA: -0.232
ACGAGCTA: 0.0271
GTTCACCA: -0.154
AAAACTAA: 0.272
AGGACTGA: -0.0754
ACTCGAAA: 0.00801
CACCTGGC: -0.268
AACTAGGG: -0.00806

Block 3
Target: Centromere-binding protein 1, full length, His-tagged (CBF1, Saccharomyces cerevisiae, UniProt P17106, residues 1-351)
Sequence of UniProt P17106 (whole entry, looked up): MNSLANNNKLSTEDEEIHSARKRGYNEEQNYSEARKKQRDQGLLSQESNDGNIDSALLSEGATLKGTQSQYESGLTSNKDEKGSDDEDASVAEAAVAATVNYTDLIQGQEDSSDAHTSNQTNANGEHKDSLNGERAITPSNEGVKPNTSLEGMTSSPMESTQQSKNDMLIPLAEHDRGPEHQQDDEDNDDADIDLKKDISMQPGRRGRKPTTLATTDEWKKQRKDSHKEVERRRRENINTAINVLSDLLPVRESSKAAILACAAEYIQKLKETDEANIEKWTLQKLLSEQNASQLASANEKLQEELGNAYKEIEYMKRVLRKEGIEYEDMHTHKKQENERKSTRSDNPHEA
Technique: competition protein-binding microarray
Molecule type: double-stranded DNA, one strand shown
Sample: in vitro
Tested at: 2 µM
Setting: whole 60-bp probe, lowest competitor level
With: Pho4 competitor, 0.05 µM
Reading: higher = stronger binding
Quantity: fluorescence intensity
All sequences stand within: … GTCTTGATTCGCTTGACGCTGCTG
TCCGAATACTGTATTAACAACGTAGAAGAACTGATG: 76.8 a.u.
CTAACGAAGGTTTGGAGGGTGGGTGACAAGCCAAGT: 57.2 a.u.
TGCATTGTTAAAAAGCACGTCTATGTGGTCTTCCAG: 75.5 a.u.
AAAGCGGTAATTTGAAGCGTGGGTGCAGATATCTAT: 78.9 a.u.
ATAGCTGCACCAACGTCTCTAGTTAGATATAACGTA: 85.3 a.u.
AAAGCGGTAATTTGTCACCCAACTTCACATATCTAT: 74.3 a.u.
CATACCCAACCTTGTCACTTTACTTAAGATATTTGT: 89.6 a.u.
ACATACAAATTTCCGCACGTTTTTAAACTTTTCCGG: 185 a.u.
AAAGCGGTAATTTGGGGGGTGGGTGCAGATATCTAT: 186 a.u.
CGTCCTAGCGATTGAATTGTGGGTGCCATGAGGAAG: 86.7 a.u.
CGATGTTCTTAATTACACGTGAATTATCAAAAACCA: 1190 a.u.
CCAAGGAAATCCCGTCACAATACGCTCCTCAGTTGA: 61.3 a.u.
GACGCCAAGTCCCATCACGTGGTTACGATGTATCGG: 3500 a.u.
GCCACATTGTATCAACGCGTGATGGACAAATGTTTG: 355 a.u.
AAAGCGGTAATTTGAGCGGTGGGTGCAGATATCTAT: 83.3 a.u.
TTCTTGTAGTCAACGTACATGATGTTGTCGTCCCAA: 72 a.u.
TCTCTTCTATCTTTAAAAGCAGGATGTGTTTCTTCC: 78.3 a.u.
TCTCATCCATTCCGTCACGCTTTGGTTGCCGGTATT: 129 a.u.
TGCGCAACAACTTGTTGTGTGGGTGTATGTCTAGAA: 75.1 a.u.
TGCGCAACAACTTGATGAGTGGGTGTATGTCTAGAA: 66.7 a.u.
CAATTACAGAAATGCCCCGTGTAACAAGATGCGCTG: 101 a.u.
CAGCGTTATCGCCGTCACGGCGATCTTGAAGTGTAG: 81.6 a.u.
GATGCTAAGAAGATATCCGTGATGGGCATCCGAGCT: 70.1 a.u.
TGAAGGTTCTTTCTGCTCGTGAAGAGTCGCTAGACG: 64.2 a.u.
CTTATTCGTATGAAGCATGTGACGCTGGTATAAGAC: 995 a.u.

Block 4
Target: Histone acetyltransferase KAT6A, winged helix 1, GST fusion (KAT6A, Homo sapiens, UniProt Q92794, residues 1-85)
Technique: protein binding microarray
Molecule type: double-stranded DNA, one strand shown
Sample: in vitro
Tested at: not given
Setting: 8-mer, flanks averaged, mean of 2 arrays, mostly near background
Baseline: not given
Reading: higher = stronger binding
Quantity: E-score
Residues (chain): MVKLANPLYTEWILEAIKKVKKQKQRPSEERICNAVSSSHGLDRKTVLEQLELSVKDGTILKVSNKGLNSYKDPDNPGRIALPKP
CGTAATTC: 0.019
CCCAACCA: -0.2
AAGTCGCC: 0.0784
GTACAAGA: -0.212
TATCCTCA: -0.256
AGGCTGAT: -0.182
CGTTAGTA: -0.0175
GCAGCTGC: 0.298
AATTCGCC: -0.00444
AATCATAC: -0.0357
ACGAGCAA: -0.18
AGATCTCG: -0.0326
ATGCTATG: -0.134
TTCCGAAA: -0.0904
CAACTTCG: -0.028
GAACACAC: -0.00312
GTGGAGGA: -0.147
AGGCCTTG: -0.2
ACACAGCT: -0.281
CGTACGGC: 0.438
GTAGGATA: -0.0817
TAGTGTGA: -0.148
ATTAGTTC: -0.129
ATAGAGCC: -0.00407
ATTCAGCA: -0.184

Block 5
Target: RNA binding protein fox-1 homolog 2, RRM domain, GST-SBP tag (RBFOX2, Homo sapiens, UniProt O43251-10, residues 100-194)
Technique: RNA Bind-n-Seq
Molecule type: RNA
Sample: in vitro
Tested at: 365 nM
Setting: natural RNA segment, single round, ends assumed
Baseline: no-protein control
Reading: higher = stronger binding
Quantity: RBNS enrichment (R)
All sequences stand within: GGGAGUUCUACAGUCCGACGAUC … UGGAAUUCUCGGGUGCCAA
Construct (chain): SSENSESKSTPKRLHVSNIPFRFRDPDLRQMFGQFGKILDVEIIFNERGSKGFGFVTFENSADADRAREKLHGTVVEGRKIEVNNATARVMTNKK
CUAAUGGCUUUGACUAAAUUACCCCCAUCCUCCUUGCCCGGAAAAGGGAGAGCUAGAGCCACUCACUGUCAUUCUGCUCUGACCUUGAAGGGGGCGGUGUUGGCCUGGCU: 0.315
UAUAUUUUAUCUCUUAUACCUGUAUCUCCCAACUAGAAACAGCUCCAGUGUUUUUAAGAGAAUGUUUCUUAAAACCAAUAGGAAACUUAAGCGAGGUUUCAUGACACAAC: 0.549
CUGAAAUUUUGAAAAGUUUUGAAAAAAGACUGCUAGACUUAGAGAGAGAAGCCAGAACAAAUUCCGCUGGUUAUAUUUUCUACCUUGUAAACAGGUCAGCACCCCCACUA: 0.694
CAUGUGUUACACCCAUCCCGUUUACCAUAUUACCAAAUCCUCACAAGAGGUUUCAAGGAACUGUUUCGCUUGAUCUGCACCCUGCUGCUGUGUUCUGUGCUUUACACUGA: 1.23
ACACAAGGGCCUUGGCUUUGUUGAGACAGAGCCUGUGCUGGCACUUGCUGUUAGGGUAGGAAGAGGCACAAAGAGGACCCCGGUAGCGGUGAUCUGUGGCCUUCUGUGGG: 0.319
AAUGAACCAACAUUUUUUGGCUCCUUGGGAUCAGAGAGAGCCAGAGUAGCAGAGGGUCUCGUGCCCAAAAGGCUACCCUUCAAGAUAAGGGAGCCCCGAGGGUCUUUGCA: 14.9
CCAAGCGAGACUAGCAGUCAUCCAGACCCCUGCCCACCUAGACUGUUUUCUGAGCCCUCCGGACCUGAGACUGAGUUUUGUCUUUUUCCUUUAGCCUUAGCAGUGGGUAU: 0.806
UUUUCCUGGAUAAUUUGAUGGAAUAUUUUAAGUUUCAGUAAAUCAGAACAAUAAACAAACUCAGAUAAAAUGUGUUGAAAGUAAUUCAUUCUCCCAUAGAUAAAUGAAAC: 0.431
GGGAGACUCAGCCUUCCUCCUCAUCCUCCCUGACCCUGCUCCUAGCACCCUGGAGAGUGCACAUGCCCCUUGGUCCUGGCAGGGCGCCAAGUCUGGCACCAUGUUGGCCU: 0.547
UUGGUUUUUGAUUGUUGCAUUUUUCCUGUUUCUUAGGAUUGAGUUGAUUGGUUUGACGUGUUUGGUUCAGUGUCACGCACUGAUACAUGUUCUCUGUAAUUACAUGUCAC: 0.565
AAAAGUAAACCAAACAAAACGAAUGAAAAACUGGAAAUAAUUCGUUUCCAUAUCUUUCCAUACAUCCAUUUCUGAAGUAUUCAGGAAUGUUUUCAUAAUCGAAAGAAACG: 0.385
GGCACUUAAUAUUUUAAUUGUCUUAAGCUUUUUGAUGUAUAUAUCCUCUGGCCCCUUACAUGCUGCCAGAGGAGAAGGUGUUUGUUUGAGAUUCAUUCCACUUGAAGUGU: 0.527

Block 6
Target: CCNA2, cyclin fold, Cln2 fusion (human)
Technique: yeast growth competition, sequencing
Sample: yeast
Setting: strong parent motif
Baseline: not given
Reading: higher = stronger binding
Quantity: normalised enrichment score
Starting sequence: RBL2 docking peptide (human); STTRRRLFVENDS; partner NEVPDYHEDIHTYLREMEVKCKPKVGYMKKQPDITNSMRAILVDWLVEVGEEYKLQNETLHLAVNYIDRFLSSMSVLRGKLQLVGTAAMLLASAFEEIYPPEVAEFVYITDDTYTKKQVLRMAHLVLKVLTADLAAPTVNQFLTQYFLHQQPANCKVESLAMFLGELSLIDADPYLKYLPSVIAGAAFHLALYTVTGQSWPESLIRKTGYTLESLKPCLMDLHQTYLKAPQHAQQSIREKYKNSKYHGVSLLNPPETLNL
STTRRRLFVLNDS [E10L]: 3.84
ITTRRRLFVENDS [S1I]: 4.95
STTRRRLFSENDS [V9S]: 5.65
STTRRRLFVEKDS [N11K]: 5.48
STTRQRLFVENDS [R5Q]: 1.51
STTRRRLFVENDC [S13C]: 5.54
STTRRRLLVENDS [F8L]: 1.62
STTRRRLFVEMDS [N11M]: 6.07
STTRRRLFVENDA [S13A]: 6.05
STTRRRLFVENDP [S13P]: 5.89
STTRRKLFVENDS [R6K]: 5.05
STTRRRLFVENDR [S13R]: 5.89
STTRRRLFVENAS [D12A]: 5.22
STDRRRLFVENDS [T3D]: 0.359
STTRRALFVENDS [R6A]: 4.28
STTRRRIFVENDS [L7I]: 0.627
STTRRRLFVGNDS [E10G]: 5.42
STTRVRLFVENDS [R5V]: 1.88
STTRRRLFVENMS [D12M]: 5.1
STTRRFLFVENDS [R6F]: 0.877
STERRRLFVENDS [T3E]: 0.357
STTRRRGFVENDS [L7G]: -0.887
STTFRRLFVENDS [R4F]: 2.11
STTRDRLFVENDS [R5D]: 1.02
GTTRRRLFVENDS [S1G]: 5.52

A few entries again (block 3):
TTCTTGTAGTCAACGTACATGATGTTGTCGTCCCAA: 72 a.u.
TCTCTTCTATCTTTAAAAGCAGGATGTGTTTCTTCC: 78.3 a.u.
TCTCATCCATTCCGTCACGCTTTGGTTGCCGGTATT: 129 a.u.
TGCGCAACAACTTGTTGTGTGGGTGTATGTCTAGAA: 75.1 a.u.
TGCGCAACAACTTGATGAGTGGGTGTATGTCTAGAA: 66.7 a.u.
CAATTACAGAAATGCCCCGTGTAACAAGATGCGCTG: 101 a.u.
CAGCGTTATCGCCGTCACGGCGATCTTGAAGTGTAG: 81.6 a.u.
GATGCTAAGAAGATATCCGTGATGGGCATCCGAGCT: 70.1 a.u.
TGAAGGTTCTTTCTGCTCGTGAAGAGTCGCTAGACG: 64.2 a.u.
